Assay results pooled from the literature.
Every numbered part comes from another study and shows a few of its results, in no order.

Series 1 — technique: protein-binding microarray; molecule type: double-stranded DNA, one strand shown; sample: in vitro; tested at: 2540 nM top; setting: 60-bp whole probe; with: salmon DNA 0.4 mg/ml; baseline: random background probes; reading: higher = stronger binding; measurement: fitted relative affinity; shared flanks, not repeated: GCCTAGCAC … GTCTTGATTCGCTTGACGCTGCTG
Target: Interferon regulatory factor 3, full length, phosphomimetic (IRF3, Homo sapiens, UniProt Q14653, residues 1-427, S386D/S396D/S398D/S402D/T404D/S405D)
Target sequence (chain): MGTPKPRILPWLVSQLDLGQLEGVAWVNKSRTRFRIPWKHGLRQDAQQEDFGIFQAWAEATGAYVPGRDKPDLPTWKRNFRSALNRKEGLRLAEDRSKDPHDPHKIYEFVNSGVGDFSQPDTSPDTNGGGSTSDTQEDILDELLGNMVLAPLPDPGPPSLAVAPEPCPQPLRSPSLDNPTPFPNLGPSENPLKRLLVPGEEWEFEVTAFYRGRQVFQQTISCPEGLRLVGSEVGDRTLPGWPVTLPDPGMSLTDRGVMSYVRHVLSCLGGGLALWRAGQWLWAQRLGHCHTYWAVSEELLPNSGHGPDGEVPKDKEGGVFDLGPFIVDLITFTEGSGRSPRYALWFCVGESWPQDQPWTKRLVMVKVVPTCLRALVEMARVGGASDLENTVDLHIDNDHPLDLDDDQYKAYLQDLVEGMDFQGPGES
CAGAAAATAGAAACTCGTGTTGTGCTA: 0.154 z-score
TACGGACTGCTACTGCTGACGTGCTAG: -0.699 z-score
CATCCAGCAGAGAGCCTCAGGTGCTAG: -0.1 z-score
GACGGTATCGGGACTGGAGACGTGCTA: 2.01 z-score
GACGAACTGGAGTTTCGAGACGTGCTA: 0.904 z-score
TTAGATATCGGCACTGGATTAGTGCTA: -0.499 z-score
TTAGGAATCGGTTTCGGTTAGTGCTAG: 6.42 z-score
GTTTATTTATTTTTACATTAGTGCTAG: 1.58 z-score
GACGTTTCCAGTTTCGAGACGTGCTAG: 4.76 z-score
GACGGTTTCGTCTTTCGGGACGTGCTA: 3.81 z-score
GACGATAACAGTTTCGAGACGTGCTAG: 2.09 z-score
TTTGCTTTAGTCATTCACTGAGTGCTA: -0.0527 z-score

Series 2 — technique: RNA Bind-n-Seq; molecule type: RNA; sample: in vitro; tested at: 365 nM; baseline: no-protein control; reading: higher = stronger binding; measurement: RBNS enrichment (R)
Target: RNA binding protein fox-1 homolog 2, RRM domain, GST-SBP tag (RBFOX2, Homo sapiens, UniProt O43251-10, residues 100-194)
Setting: natural RNA segment, single round, ends assumed
Shared flanks, not repeated: GGGAGUUCUACAGUCCGACGAUC … UGGAAUUCUCGGGUGCCAA
Target sequence (chain): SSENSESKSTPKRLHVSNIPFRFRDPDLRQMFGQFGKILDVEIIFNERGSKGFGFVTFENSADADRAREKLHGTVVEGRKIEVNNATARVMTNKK
UUACAGCCACCCUUGCAAGAAGUGCUGGUAUAGGGUCAGCUGGGGAGAAGAGCCCUGGUCAGUGGCCUUGGAUUGUCACUUCUUUCAGGAUAAAGAUCCCUUGGGGGGGG: 0.445
GCAGGCUGUCGUUCCGGUUAUGUUGUGUAAGUCAACUCUUCAGCCUCAUUCACUGUCCUGGCUUUUAUUUAAAGAAAAAAAAGGCAGUAUUCCCUUUUUAAAUGAGCUUU: 0.63
ACAUACUCAAGUGCACACCACAGCCCGAGGUGGAGACCUGGGCCACACCCUUCCCCUCCUGACAUCUUUAGUUUGGAGCACACAGAGGAAAUAGAACCUAAACACAUGCC: 0.518
CAAUUCUUAUUCGCCAUUUCAAUACCUAGAGAUAGAGAGUCUUGUAUUUGAAGCCACACACACUGGUGUAAUAUGCUUAGUACUCUAGGUCAAGGAUUUGUUGGUAAAUG: 0.561
GCUCCCUCCCUCCCUGUAAGCUUUCACUCACCAGCGUGUUUAUUUACACAUCCAUUACUUAUUCACUCAUCAGACUGUCAUGAAAUAUUUGUGUUGUUCCAGGGCCUGUG: 0.918
UUUGUUUACUUUGGUUUUUUUGUUUUUAAUCUCAGAGAGAGGUGUGUUUAGUGGGCACAAGCUGUAAUAUUCAGCAAAACUUUGUCGACUGGCACUGUUUACAAGUCUGU: 0.532
UUGGUGAUGUAAGCAAGUAAAACCCAAUGGACUCUGUUGUGAUAUCCUUUUGUGUUCCAGCCUAGGCUAAGUGUUUGUGAAAGCCAUUUGUGAGUGCUUGGAGUGUUCUU: 1.64
GGACUCUGCCUCGGGAUCUGAUGAUAAAGGAGGGAAUUCCCACCUCGUCACAGCUCCAGUCUCUCACAUAGUCCUUGGAUUCUGUGCCAUCUGAGUAACUGCUCUUGGUG: 0.207
UAAAAAUUCAAUGAGUAAAACAAAAGCUAGUCAAAUGUGUUAGCAGCAUGCAGAACAAAAACUUUAAACUUUCUCUCUCACUAUACAGUAUAUUGUCAUGUGAAAGUGUG: 12.7
AAGAGCUUCUUUGAGGCCAAGAAGCUGGUGUAGGGGUCUCGCCCUAUAACCUUCCCCUUUUACCUCAAUUAUUUGAUAAUUUCCCCACCCAGCCCCUCAUCCACCUGGAA: 0.503
AAAGGAAUGAAGGAACCUCCCUCCCUGAAAGCUUUUCCUGCUUCUGAGACUGUGUUCAGCCCUUUCCCCUAUAAAUUGAUAGGAACUGUGUGUCCACCUUUCCAAAGAAA: 0.474
CUUGUGCACAGAGUAACUUUUCUAGCUGCCCCUUUCUGUAAUAGUGAAAGUUGGUAUUUAACAUUUAUUCAUUUUUAAAAUAUUUGGAAGGUCUGAGCUUGUGAAAAGAA: 0.387

Series 3 — technique: protein binding microarray; molecule type: double-stranded DNA, one strand shown; sample: in vitro; tested at: not given; baseline: not given; reading: higher = stronger binding; measurement: E-score
Target: Histone acetyltransferase KAT6A, winged helix 1, GST fusion (KAT6A, Homo sapiens, UniProt Q92794, residues 1-85)
Setting: 8-mer, flanks averaged, mean of 2 arrays, mostly near background
Target sequence (chain): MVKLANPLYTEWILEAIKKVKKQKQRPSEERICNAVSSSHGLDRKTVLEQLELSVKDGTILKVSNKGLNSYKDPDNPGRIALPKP
GTCCGGAA: -0.0242
AAGTAGCT: -0.24
ATGAGACC: -0.108
AATGATTC: -0.085
GCCAGGCA: -0.0399
CGCGTGTA: 0.218
CTGCGCAG: 0.0803
GAAGACGA: -0.038
ATAGCCGC: 0.404
GCAGCGGC: 0.418
GCCGGGAA: 0.338
AAATCAAG: -0.0788
ACGAAGTA: -0.087
AACGTAGA: -0.0434
TCTACCAA: -0.154
TCAACTCA: -0.296
GCGCGGGA: 0.429
AGCAATAC: -0.0729
CACACGAA: -0.0754
AACACACA: -0.199
AAGCAATT: -0.0343

Series 4 — technique: RNA Bind-n-Seq; molecule type: RNA; sample: in vitro; tested at: not given; baseline: input RNA pool; reading: higher = stronger binding; measurement: bound/input enrichment
Target: RING finger protein unkempt homolog, zinc fingers 1-6, GST-SBP tag (UNK, Homo sapiens, UniProt Q9C0B0, residues 30-357)
Setting: RNA with constant flanks, human-mouse chimeric sites, ends assumed
Shared flanks, not repeated: GGGAGUUCUACAGUCCGACGAUC … CAACAGAGGAUUGAGCAUCA
Target sequence (chain): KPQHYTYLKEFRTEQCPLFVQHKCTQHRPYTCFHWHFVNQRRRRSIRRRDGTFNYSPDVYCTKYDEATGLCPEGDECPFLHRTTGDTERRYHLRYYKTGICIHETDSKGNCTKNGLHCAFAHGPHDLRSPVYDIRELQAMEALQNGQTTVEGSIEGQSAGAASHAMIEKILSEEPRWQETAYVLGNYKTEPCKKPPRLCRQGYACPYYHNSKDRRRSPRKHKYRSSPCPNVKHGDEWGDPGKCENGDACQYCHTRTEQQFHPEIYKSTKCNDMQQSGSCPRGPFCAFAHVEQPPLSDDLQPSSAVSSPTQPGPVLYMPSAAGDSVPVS
AACUUCGUACAUAGAUUUCCCUUUGUAGCUGUUUCAAUUGGCUUCCUUGUAAAUAAAGAGAUGGAGUUUGGAAUUGUGUACAGCUGUGUGGAAGAUAAGAUGUACACCGGCAGGAAAGGG: 0.677 ratio
UCAUUUUUCUCUUUUCUGAUCGUCAGGUAGGAAAAGCAGAUUAGACUGGUUGUAAGAAAAACAGAAGCCAUGUUUCGAAGACCUGUGUUACAGGUAUUUCGUCAGUUUGUAAGACAUGAG: 0.549 ratio
ACACAAUAUGAGACCAACAGCAUGGACUUCAAAGUUGGGGCAGAUGGGACAGUCUUCGCCACCCGGGAGCUGCAGGUCCCCUCAGAGCAGGUGGCGUUCACGGUGACUGCGCGGGAAAGC: 0.19 ratio
AACAGAUUGUCUUUAAGGUCAACGUAGGAGAAUGCUGGGGUGAUCAUUGUUGCCCAUGUGCCUUCUGUAAUAGAUGGAAUGCUGUUCCAUGUUACAUCUUUCCUUCACUCCAGAAUUGUU: 0.0984 ratio
CUGUGACCACAAGAUCCUACCUGAGUGGCAGCUGAAGUUGACUCCCUCCCCUUCCCUGAACCCCCCCCCACUGCCCCUUGAGUCCACAGUGUCGGCUGAGAUGUUGCCUCUGCACGGUUC: 0.962 ratio
UCCCAAAUCCAGCAGCUCCUUGAAAUAUUGAGACAAACACUCCACACGCAGGGAGGGCGAUAACAUUGUACAUUGGUUUACAUUUUUUCCCCCUGUGGAUUUUUCUAGAGGUCAUAGUGC: 0.51 ratio
ACUCAGAGAUCCACCUCAAUUGAAGUGGGGAGUAAAGGUGUGGCCACCACACCUAACUUGAUGGAUAUAUAUUUUUUCUCUUUUAUGUCUUCCUGUUCGUCCAGGGAAGAAAGAUUUGUU: 0.358 ratio
GAGCCCAGCCGGCAGUUUGUAAAGGACUCAAUUCGGCUGGUUAAAAGAUGCACUAAACCCGACAGAAAAGAAUUCCAGAAGAUUGCCAUGGCUACAGCUAUAGGAUUUGCUAUAAUGGGA: 0.314 ratio
CUGGCACUGUAUCAGAUAUAUUAAUUUUUUAAUGUAGAUGUAAUUUUAAAAAUGAAUGGCUACUUUACGUGAUAGAUUAGGGUUUUACUAUAUAUGUGUACAUAUGUAUAUAUAUAUAUA: 13.7 ratio
CUGGCCUGGCCCUCCCCAGGGGCCUCCUUUCGUAUAGUCACUGCUUCUGCUACGGAUACUUUCAGCUGCAACUCCCUACUGGGUGGGGCACCCAUUUCAGGCAGAAGUUGGUGCCCCCCU: 0.205 ratio
UCCUGGUCGUGUCCCAGGGGACAAUGUUGUGAACAAAAACUCAAAGCGGACCCUCUAUUGUAGUUCUUGAUUCUCGAAAUGUGCUAUUAUUGUUUGUCUUUUUUUUUUUUUUUUUAAAGA: 1.02 ratio

Repeated from above (series 3):
GCAGCGGC: 0.418
GCCGGGAA: 0.338
AAATCAAG: -0.0788
ACGAAGTA: -0.087
AACGTAGA: -0.0434
